# Results of several laboratories.
# Numbered parts are unrelated; each lists some results of a single study. Values joined by “and” are separate records of one study, mostly repeats; a detail may differ.

# Series 1
# Cell line: mouse MPNST tumor cells
# Technique: high-content nuclear imaging
# Item: cell number
# Tested at: 10 µM
# Time: 12 h
# Setting: mean of 2 replicates
# Reference: plate mean
# Direction: higher = more cells
Structure (SMILES),nuclei count
CC1CNc2c(cccc2S(=O)(=O)N[C@@H](CCCNC(=N)N)C(=O)N2CC[C@@H](C)C[C@@H]2C(=O)O)C1 (stereo partly drawn),0.858 z-score and 0.982 z-score and 0.724 z-score
O=c1[nH]nc(Sc2ncc([N+](=O)[O-])s2)n1-c1ccc2c(c1)OCCO2,-3.62 z-score
Cc1cc(/C=C/c2ccc3cc(N(C)C)ccc3[n+]2C)c(C)n1-c1ccccc1,-0.782 z-score and -3.58 z-score
Cc1c[nH]c2ncnc(-c3ccc(NC(=O)N(CCO)c4ccccc4)cc3)c12,0.793 z-score

# Series 2
# Organism: Plasmodium berghei
# Action: inhibitor
# Cells: Huh-7
# Strain: liver stage
# Tested at: 10 µM
# Time: 24 h
# Reference: untreated control
Structure (SMILES),infection rate
NNC(=O)c1ccncc1,123%
CCOC(=O)[C@@](C)(N)Cc1ccc(O)c(O)c1,65.3%
NS(=O)(=O)c1cc2c(cc1Cl)NCNS2(=O)=O,93.7%

# Series 3
# Target: Sigma non-opioid intracellular receptor 1 (SIGMAR1, Homo sapiens, UniProt Q99720)
# Chain of UniProt Q99720 (whole entry, looked up): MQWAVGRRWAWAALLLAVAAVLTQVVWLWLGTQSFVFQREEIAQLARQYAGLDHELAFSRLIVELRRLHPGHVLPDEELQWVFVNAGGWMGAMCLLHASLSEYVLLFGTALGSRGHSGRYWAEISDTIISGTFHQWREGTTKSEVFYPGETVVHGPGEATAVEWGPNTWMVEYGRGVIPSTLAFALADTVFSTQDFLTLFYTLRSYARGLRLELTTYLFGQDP
# Effect on: ligand displacement
# Tested at: 10 µM
SMILES,inhibition [%]
Cc1ccc(-c2cnc([C@@]3(O)CC[C@H](C(=O)O)C(C)(C)C3)s2)cc1Nc1cccc(C(F)(F)F)n1,-11.4
CCc1ccccc1C(=O)Nc1n[nH]c2c(C)c(F)c(C3C(C#N)=C(C)N(C)C(C)=C3C#N)cc12,30.5
C[C@H](c1ccnc(Nc2nc3ccc(-c4cc(N(C)C)ncn4)cc3[nH]2)c1)N1CCN(C(=O)CC(F)(F)F)CC1,3.18
CCOc1ccc(S(=O)(=O)Nc2ccc(Cl)cc2C#Cc2cnc(C(=O)O)cc2OC)c2ncccc12,-6.66
CC(=O)Nc1ncc(CN2CCC[C@H](Cc3cc(C)nc(C)c3)C2)s1,46.5
COc1cccc(NC(=O)c2nc3scc(CN(C)Cc4ccccc4)c3c(=O)[nH]2)c1,80.7
N#CC1(c2ccccn2)CCN(Cc2cc(C(=O)N3CCCC3)c(=O)n3ccccc23)CC1,16.3
Cn1cc(Cl)c2c(Oc3c(F)cc(Nc4cc(Cl)nc(N)n4)cc3F)ccnc21,22.3
O=S(=O)(NC1CCC(c2cc(F)ccc2F)(S(=O)(=O)c2ccc(Cl)cc2)CC1)C(F)(F)F (stereo not drawn),36.8
NS(=O)(=O)c1cc(NC(=O)Cc2ccccc2)ccc1Oc1cccc(Cl)c1,-8.2
O=C1NC(c2ccccn2)Sc2ccccc21 (stereo not drawn),-10.9
C[C@@H](c1cccc(C#N)c1)n1cc(Cl)cc(C(N)=O)c1=N,17.4
Nc1nc(NCc2ccccc2)nc(-c2cccc(CO)c2)n1,0.95

# Series 4
# Species: human
# Sample: microsomes or S9
# Tested at: 2 µM
# Time: 0.5 h
SMILES,remaining compound
CCc1ccc(-n2c3nc(=O)[nH]c(=O)c-3cc3c(Cl)cccc32)cc1,84.7%
CC(C(=O)O)n1ccc2c(cnc3ncnn32)c1=O (stereo not drawn),75.3%
Cc1cnc(CC2CCCN(C(=O)NC(C)(C)C)C2)n1CC1CC1 (stereo not drawn),52.3%

# Series 5
# Cell line: HaCaT
# Tested at: 100 µM
# Time: 18 h
Compound,viability [%]
Cc1cccc(Nc2ccncc2S(=O)(=O)NC(=O)NC(C)C)c1,96.6
CNC(=O)c1ccccc1Sc1ccc2c(/C=C/c3ccccn3)n[nH]c2c1,24.5
Cc1cc2nc3c(=O)[nH]c(=O)nc-3n(C[C@H](O)[C@H](O)[C@H](O)COP(=O)(O)O)c2cc1C,140

# Other studies, line by line
Compound,test system,conditions,endpoint,result
O=C1CCC(N2Cc3cc(C4CCN(Cc5ccccc5)CC4)ccc3C2=O)C(=O)N1 (stereo not drawn),"male ICR mice, plasma","intravenous, 1.0 mg/kg",AUC(0-inf),325 ng·h/mL and 433 ng·h/mL

# Repeated from above (series 5):
Compound,viability [%]
Cc1cccc(Nc2ccncc2S(=O)(=O)NC(=O)NC(C)C)c1,96.6
Cc1cc2nc3c(=O)[nH]c(=O)nc-3n(C[C@H](O)[C@H](O)[C@H](O)COP(=O)(O)O)c2cc1C,140
